Measured values pooled from the literature.
Each numbered part is a random draw from the data of one study; scales do not carry over between parts.

Sample 1
Target: Histone acetyltransferase KAT6A, winged helix 1, GST fusion (KAT6A, Homo sapiens, UniProt Q92794, residues 1-85)
Technique: protein binding microarray
Form: double-stranded DNA, one strand shown
Medium: in vitro
Concentration: not given
Notes: 8-mer, flanks averaged, mean of 2 arrays, mostly near background
Reference: not given
Reading: higher = stronger binding
Construct (chain): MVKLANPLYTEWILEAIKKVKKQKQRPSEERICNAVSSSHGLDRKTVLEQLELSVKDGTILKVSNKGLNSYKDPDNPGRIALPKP
Strand	E-score
ACCGCGCG	0.44
CCCTCAGA	-0.145
CCAAACCA	-0.223
AGCGCGTA	0.379
GGTTTCTA	-0.0962
ACGGCAAG	0.286
GCTATCAA	-0.0422
AGGCGTAT	-0.0896
AAATTCGT	-0.139
TACGGACA	0.129
CGAAACCA	-0.0596
CTTCCAAA	-0.148
GGTGAGTA	-0.163
CCGACCGC	0.359
AATCAAAT	-0.119
ATGATAGA	-0.04

Sample 2
Target: Interferon regulatory factor 7, full length, phosphomimetic (IRF7, Homo sapiens, UniProt Q92985, residues 1-503, S471D/S472D/S475D/S476D/S477D/S483D/S484D/S487D)
Technique: protein-binding microarray
Form: double-stranded DNA, one strand shown
Medium: in vitro
Concentration: 2200 nM top
Notes: 60-bp whole probe
Added: salmon DNA 0.4 mg/ml
Reference: random background probes
Reading: higher = stronger binding
All sequences stand within: GCCTAGCAC … GTCTTGATTCGCTTGACGCTGCTG
Target sequence (chain): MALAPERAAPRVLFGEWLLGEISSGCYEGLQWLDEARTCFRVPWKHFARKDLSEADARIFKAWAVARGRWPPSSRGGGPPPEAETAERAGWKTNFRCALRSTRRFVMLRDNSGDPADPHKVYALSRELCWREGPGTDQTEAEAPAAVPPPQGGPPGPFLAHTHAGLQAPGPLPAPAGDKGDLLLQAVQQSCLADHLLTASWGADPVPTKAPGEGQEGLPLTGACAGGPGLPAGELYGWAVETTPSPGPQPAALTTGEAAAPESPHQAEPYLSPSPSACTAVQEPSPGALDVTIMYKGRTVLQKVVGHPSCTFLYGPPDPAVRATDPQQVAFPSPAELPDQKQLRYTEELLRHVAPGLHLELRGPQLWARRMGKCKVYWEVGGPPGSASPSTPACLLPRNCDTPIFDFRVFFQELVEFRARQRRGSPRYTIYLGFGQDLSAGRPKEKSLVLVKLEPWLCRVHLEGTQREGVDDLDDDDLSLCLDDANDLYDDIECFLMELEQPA
Strand	fitted relative affinity [z-score]
TTAGGACTGGGTCTCGGTCAGTGCTAG	-0.831
TTAGGACTGGGTTTCGGTCAGTGCTAG	1.19
GCAACATTCACCATGGCTAGGTGCTAG	0.914
TTAGAACTGTGTATCGATTAGTGCTAG	0.0437
AAACAAGTCAATGGCCTTTCGTGCTAG	-0.0129
GAAGGTTTCGGGACTGGGGACGTGCTA	2.98
TTCGGTATCGACACTGGGTTAGTGCTA	0.711
TCATCTATTGCTTTCTCACTGTGCTAG	1.86
TTAGGTTCCGGTATCGGTTAGTGCTAG	1.79
TTAGGCTTCCTTTCCCTTTAGTGCTAG	2.68
ACCTATAGGTTGTTTCTAATAGTGCTA	0.462
TTACATTTCAGTTTCGATTAGTGCTAG	8.42
TCATGACTCTTTCTGTCACTGTGCTAG	1.28
TTAGGTATCCGGACTGGGTTAGTGCTA	-0.462
TTAGGTCTCGTTATCGGTTAGTGCTAG	1.29
GTGTTTCTCAGTTTATTTATGTGCTAG	2.29
TTAGATCTCCGTCTCGATTAGTGCTAG	0.843
TGGCTTTGCCTTTTGCTTTAGTGCTAG	0.995

Sample 3
Target: Transcriptional repressor CTCF (CTCF, Homo sapiens, UniProt P49711, residues 1-727, full length assumed)
Technique: protein-binding microarray
Form: double-stranded DNA, one strand shown
Medium: in vitro
Concentration: not given
Notes: k-mer, scored over probes, only values ≥0.25
Reading: higher = stronger binding
Target sequence (chain): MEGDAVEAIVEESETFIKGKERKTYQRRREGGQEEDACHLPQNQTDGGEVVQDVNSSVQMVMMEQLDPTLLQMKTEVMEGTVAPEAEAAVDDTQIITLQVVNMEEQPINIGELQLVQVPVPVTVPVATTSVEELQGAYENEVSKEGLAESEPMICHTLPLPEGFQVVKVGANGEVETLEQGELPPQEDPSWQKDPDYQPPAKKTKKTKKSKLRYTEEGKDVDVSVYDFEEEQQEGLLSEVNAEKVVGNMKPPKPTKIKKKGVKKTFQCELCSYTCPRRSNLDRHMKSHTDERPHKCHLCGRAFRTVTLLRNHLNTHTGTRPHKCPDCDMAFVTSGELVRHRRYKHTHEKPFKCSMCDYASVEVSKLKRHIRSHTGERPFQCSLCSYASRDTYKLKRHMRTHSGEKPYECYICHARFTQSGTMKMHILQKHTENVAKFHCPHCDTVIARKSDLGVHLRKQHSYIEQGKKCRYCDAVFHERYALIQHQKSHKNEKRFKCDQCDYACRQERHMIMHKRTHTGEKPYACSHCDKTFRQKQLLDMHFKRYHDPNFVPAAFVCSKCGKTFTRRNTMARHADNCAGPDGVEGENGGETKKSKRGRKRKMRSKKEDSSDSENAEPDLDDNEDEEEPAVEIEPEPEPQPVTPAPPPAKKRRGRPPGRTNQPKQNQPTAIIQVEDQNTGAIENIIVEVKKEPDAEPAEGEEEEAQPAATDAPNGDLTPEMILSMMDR
Strand	E-score
ATTATAAT	0.277
ATAATTAA	0.308
ATAACAAC	0.267
AATATGTA	0.255
TACATCTA	0.274
CGCCGCCC	0.306
AATGCGCC	0.398
AAAATCAT	0.252
ATTGAATA	0.253
CATCCGCA	0.261
CCCCTAGG	0.293
ATTATTTC	0.267
ATTAAATG	0.286
AACCGCTA	0.264
TATGTTCA	0.283
AGTAGAAA	0.26
TAACAATA	0.286

Sample 4
Target: RNA binding protein fox-1 homolog 2, RRM domain, GST-SBP tag (RBFOX2, Homo sapiens, UniProt O43251-10, residues 100-194)
Technique: RNA Bind-n-Seq
Form: RNA
Medium: in vitro
Concentration: 365 nM
Notes: natural RNA segment, single round, ends assumed
Reference: no-protein control
Reading: higher = stronger binding
Target sequence (chain): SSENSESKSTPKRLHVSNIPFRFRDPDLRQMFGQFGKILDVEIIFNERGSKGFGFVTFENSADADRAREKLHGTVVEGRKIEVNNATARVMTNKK
Strand	RBNS enrichment (R)
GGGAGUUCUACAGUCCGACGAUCAUUUUAAAGAUUUAUAUAAUGCUUUUGAACACUCUGAGAAAGGGUUGUUUUUUUUCAUUGGGUUAAUCUGUAUAUCUGAAUUCUUGAAGCUUUUCUCUAGCCUACAGUAGUGGAAUUCUCGGGUGCCAA	0.323
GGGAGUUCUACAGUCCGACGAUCUUUUAGAGCCCCUGCUCUAGGAAACAGUUUAAGAAAUCAUUGGCCCCUUCCCAGCACAUUGAAUGGGUAAGCAGACAGGCCAUGAUUUAGUUGGCCAGCACUAACUCCACUGGAAUUCUCGGGUGCCAA	0.557
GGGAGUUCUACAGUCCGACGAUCACUCUAGUUAGGACAGACUUGUGCUUUUAUCCUGACUAAAAAGUUAAAUAUUUAAGUCACAUACAUGGUAAAGAUCUAAGUUUCAUUUUCCACAUGGAUGACCAGGAACCUGGAAUUCUCGGGUGCCAA	0.285
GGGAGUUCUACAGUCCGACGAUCGGAUGGGCACCACAGACAGGAGGCCCCUCAGGCCCGUGCGGGCCACUGUCUGCUGCCGCCUGCCGGGGUGGCAGAGUGAGUUGUCUCAGGACCCCGUCACUGCGACGUUGUGGAAUUCUCGGGUGCCAA	0.618
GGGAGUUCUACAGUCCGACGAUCUGUGUGUCUAACUCUCAGUUAUAAGCAUUCUGACCAGUGUUUAAACGUGUAAAUAAGAACACACAUAGUUAACUAAAGAACCAGGCAGUCCCCUGCUUAACUGCAGCCUGUGGAAUUCUCGGGUGCCAA	0.243
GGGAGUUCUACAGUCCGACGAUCGUAAACUGGAAAAUCAUGUAUUUCUAAAGGCUGUGUACCUAUAAAUUAGUUGAGAAAGCUCUGUUUCAUUUAGAGUUUUAAAGGAAUAUUCUCUCUUCAAUUAAGGAAUUUGGAAUUCUCGGGUGCCAA	0.448
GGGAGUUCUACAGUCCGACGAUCCUGACCCUUGAGUUAAUUUUAGCACAACUCAUUCUUCAGUGCCUCAUUAUGAAAGACAAAAAGCAUCACAAUAAGGCUUCCAGGUAGCCCUGUUCCCUAAUAGAAACAUUUGGAAUUCUCGGGUGCCAA	0.548
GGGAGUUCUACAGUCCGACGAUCACAAGGACACUUUAAAACCUUAGGAAUUAUAAAAAUGUCUUUGAUAUUAGAUACUCACAAUCAAAGUCUGAUUUAAUGUAAAAAUUAAUAAAAUGUGUCUAUACUUAGCAUGGAAUUCUCGGGUGCCAA	1.08
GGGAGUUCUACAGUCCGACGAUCCCAGUGCCCACCCGUCCACGUUGCUGACAUUGCCACGCUUUGAGGUGUGGUGGUCGCUGGGACCCGUGCCGUGACCCCUAUUUAGCUGUGUUUUGGACUCCGUGUCUUCAUGGAAUUCUCGGGUGCCAA	0.324
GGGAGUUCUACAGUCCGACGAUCAGAGAAGAAUGGGGACAACAGAAACCUGCUUUGUAGGGGAUUAUGUAGACUAAAAGCCUAGAAGUUCUGCCCACAUCCUUAUGACGCAGCCAAUCUGGAGCUUCAUGUUUUGGAAUUCUCGGGUGCCAA	0.501
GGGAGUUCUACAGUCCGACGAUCCAAGAGUUUCUCUUCCAGAAGCCAAGAGGAGAACAAAGGUCCUAAUGCUGUACUAUUCCACCCUUUGGACGCCUCAUCCAGGACGCAGAGGACUCUAGGUUUAACAUUUUUGGAAUUCUCGGGUGCCAA	0.434
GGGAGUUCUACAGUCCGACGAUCCCCAGACCGUGUGACACAGCACAGCCUCCUUAAUGACACGUUGCCAUGUAACGCACCUGUAACUUAUCAGCCCAUGUUCAUUACGUAACUUUGUACUGUACGUCACAGUGUGGAAUUCUCGGGUGCCAA	0.263
